Measured values collected from several papers.
Numbered parts are unrelated; each lists some results of a single study. Substitutions count along the parent as printed.

Series 1
Target: ABI1, truncated, D143A, DHFR fusion (Arabidopsis thaliana)
Technique: DHFR PCA, deep sequencing
Medium: yeast
Notes: methotrexate growth selection, single substitutions
Added: (+)-ABA 4.8 µM
Relative to: wild-type fitted maximum
Reading: higher = stronger binding
Parent: PYL1, truncated, DHFR fusion (Arabidopsis thaliana); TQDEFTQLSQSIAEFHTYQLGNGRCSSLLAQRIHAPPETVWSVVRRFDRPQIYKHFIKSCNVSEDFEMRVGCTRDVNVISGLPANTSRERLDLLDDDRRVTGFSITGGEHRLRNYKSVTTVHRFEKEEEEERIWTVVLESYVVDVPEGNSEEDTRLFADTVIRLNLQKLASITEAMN; partner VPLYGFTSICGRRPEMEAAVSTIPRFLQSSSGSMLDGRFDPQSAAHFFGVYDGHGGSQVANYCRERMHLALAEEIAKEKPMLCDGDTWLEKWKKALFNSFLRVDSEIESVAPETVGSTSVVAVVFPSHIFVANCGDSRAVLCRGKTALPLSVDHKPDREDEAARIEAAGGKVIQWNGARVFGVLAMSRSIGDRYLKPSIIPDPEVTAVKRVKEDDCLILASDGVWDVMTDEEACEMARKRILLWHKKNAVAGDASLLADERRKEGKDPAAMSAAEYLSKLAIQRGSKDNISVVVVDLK
Substitution | relative binding score [%]
H55M | 86.5
A35Y | 0.627
D97K | 76.4
W134G | 68.4
C72S | 67.6
F66T | 47.6
D65E | 69.4
T120Q | -4.6

Series 2
Target: SRSF protein kinase 3 (SRPK3, Homo sapiens, UniProt Q9UPE1)
UniProt Q9UPE1, sequence (whole entry, looked up): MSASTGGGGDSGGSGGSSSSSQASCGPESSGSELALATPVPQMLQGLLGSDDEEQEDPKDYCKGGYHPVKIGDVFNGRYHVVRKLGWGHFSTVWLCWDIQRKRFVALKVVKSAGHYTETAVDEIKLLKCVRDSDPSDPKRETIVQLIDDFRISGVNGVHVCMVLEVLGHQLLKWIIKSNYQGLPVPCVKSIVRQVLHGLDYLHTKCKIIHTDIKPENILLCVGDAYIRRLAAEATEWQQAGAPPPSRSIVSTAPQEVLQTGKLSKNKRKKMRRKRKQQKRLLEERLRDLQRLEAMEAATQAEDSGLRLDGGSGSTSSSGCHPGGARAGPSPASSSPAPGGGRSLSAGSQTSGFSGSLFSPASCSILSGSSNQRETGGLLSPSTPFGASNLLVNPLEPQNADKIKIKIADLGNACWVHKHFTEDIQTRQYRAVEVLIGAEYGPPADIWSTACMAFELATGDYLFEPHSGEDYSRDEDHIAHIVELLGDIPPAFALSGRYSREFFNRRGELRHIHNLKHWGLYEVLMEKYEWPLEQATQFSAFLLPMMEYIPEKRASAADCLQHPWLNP
Read-out: enzyme activity
Action: inhibitor
Tested at: 0.5 µM
Relative to: control
SMILES | remaining activity
Cn1cnc2cc3c(Nc4cccc(Br)c4)ncnc3cc21 | 94.9%
O=c1cc(N2CCOCC2)oc2c1ccc1ccccc12 | 105%
Nc1[nH]nc2nnc(-c3c(-c4ccccc4)nn4ccccc34)cc12 | 88.9%
O=C1NC(=O)/C(=C/c2ccc3nccnc3c2)S1 | 91.4%
O=C(Nc1ccc(Cl)cc1)c1ccccc1NCc1ccncc1 | 100%
COc1ccc(-c2cnc3c(-c4ccsc4)cnn3c2)cc1 | 94.1%
COc1cc2ncnc(Nc3ccc(OCc4ccccc4)cc3)c2cc1OC | 92.8%
CC(C)c1nn(-c2c(Cl)cccc2Cl)c2nc(Cc3ccc(OCCO)cc3)[nH]c(=O)c12 | 92.9%
CCOc1cc2ncnc(Nc3cccc(Br)c3)c2cc1OCC | 93.5%
CS(=O)(=O)CCNCc1ccc(-c2ccc3ncnc(Nc4ccc(OCc5cccc(F)c5)c(Cl)c4)c3c2)o1 | 104%
CCN1/C(=C/C(C)=O)Sc2ccc(OC)cc21 | 95%

Series 3
Target: Prothrombin, mature alpha-thrombin (F2, Homo sapiens, UniProt P00734)
Technique: aptamer microarray, sandwich
Form: DNA with 2'F-ANA
Medium: in vitro
Tested at: 200 nM
Notes: whole 15-mer aptamer, many near background
Added: Cy3 exosite-II aptamer, 400 nM
Reading: higher = stronger binding
Sequence: GGTTGGTGTGGTTGG
Modification | mean fluorescence intensity [a.u.]
2'F-ANA at 1 2 4 6 9 12 13 | 154
2'F-ANA at 1 4 7 8 9 13 15 | 118
2'F-ANA at 1 2 3 4 5 6 7 10 15 | 48.4
2'F-ANA at 2 3 6 7 8 9 10 14 15 | 274
2'F-ANA at 2 6 9 10 12 14 15 | 82.7
2'F-ANA at 3 4 7 9 12 15 | 945
2'F-ANA at 3 4 8 11 13 14 | 323
2'F-ANA at 1 2 3 7 8 11 14 15 | 83.7

Single results of other studies
SMILES | cell line | assay | setting | scale | endpoint | result
Cn1cncc1[C@@](O)(COc1ccc(C#N)cc1-c1ccc(OC(F)(F)F)cc1)c1ccc(C#N)cc1 | HEK293T | high-content imaging | 10 µM, 24 h, 1 normal, negative death, unit not given | relative to: untreated growth | GR value | -0.0147

For quick reference, copied from above (series 2):
SMILES | remaining activity
COc1cc2ncnc(Nc3ccc(OCc4ccccc4)cc3)c2cc1OC | 92.8%
CC(C)c1nn(-c2c(Cl)cccc2Cl)c2nc(Cc3ccc(OCCO)cc3)[nH]c(=O)c12 | 92.9%
CCOc1cc2ncnc(Nc3cccc(Br)c3)c2cc1OCC | 93.5%
CS(=O)(=O)CCNCc1ccc(-c2ccc3ncnc(Nc4ccc(OCc5cccc(F)c5)c(Cl)c4)c3c2)o1 | 104%
